Experimental data of several laboratories.
Protocols differ between the studies behind these lines.
Target: Dual specificity protein kinase CLK4 (CLK4, Homo sapiens, UniProt Q9HAZ1)

CN1CC[C@@H](COc2cnc(C#N)cc2-c2ccn3nc(NC(=O)C4CC4)cc3c2)C1
inhibition (enzyme activity, inhibitor; 1 µM): -5%

CNC(=O)C[C@H](Cc1ccc(C#N)cc1)NC(=O)c1cc(-c2ccc(CN[C@H](C)c3ccc(C)cc3)o2)ccc1Cl
activity vs control (enzyme activity, inhibitor; 1 µM): 96%

C=CC(=O)N1CCCC(n2c(=O)c3ncccc3n(Cc3ccc(Oc4ccccc4)cc3)c2=O)C1 (stereo not shown)
remaining binding (cell-free assay, competition with immobilised ligand; 1 µM): 83%

NC(=O)C[C@H]1CCc2sc3ncnc(O[C@H]4CC[C@H](N5CCOCC5)CC4)c3c21
inhibition (enzyme activity, inhibitor; 10 µM): 64%

CC(C)=CC1OC(C)(C)C2C=C3C(=O)C(Cl)=CC(O)C3C3C(O)C4OC4C(=O)C132 (stereo not shown)
remaining binding (cell-free assay, competition with immobilised ligand; 10 µM): 76%

Cc1cccc(O[C@H]2CCC[C@@H](C(C)CNCc3ccncc3)C2)c1 (relative stereo)
inhibition (enzyme activity, inhibitor; 1 µM): 2%

O=C(Cc1ccc(OCc2ccccc2)cc1)NC1(C(=O)O)CCN(C(=O)c2ccc(-c3cccc(Cl)c3)cc2)CC1
activity vs control (enzyme activity, inhibitor; 10 µM): 89%

COc1c(Cl)cccc1Nc1c(-c2ccncc2C#C[C@@]2(C)CCCN2C(=O)/C=C/CN(C)C)[nH]c2c1C(=O)NCC2
remaining binding (binding, competition with immobilised ligand; 3 µM): 93%

COc1cc(Nc2nc(C)cc(-c3cnn4nc(OC)ccc34)n2)cc(C(F)(F)F)c1
remaining binding (binding, competition with immobilised ligand; 1 µM): 98%

C=CC(=O)N1CCc2ccc(-n3c(=O)ccc4cnc5ccc(-c6cnn(C)c6)cc5c43)cc21
remaining binding (KINOMEscan; 1 µM; baseline: DMSO control): 95%

CN1CCN(Cc2ccc(-c3ccc(CO[C@H]4CCC[C@@H]4NC(=O)c4cc(-c5cnn(C)c5)cnc4N)cc3)cc2)CC1
inhibition (enzyme activity, inhibitor; 0.1 µM): -2%

C=CC(=O)Nc1cccc(-c2cnc3[nH]cc(C(=O)NC(C)(C)C)c3n2)c1
inhibition (kinase activity; 0.1 µM): 81%

Nc1ncc2c(n1)-c1c([nH]c3ccc(C4=CCOCC4)cc13)CCC2
remaining binding (binding, competition with immobilised ligand; 1 µM): 84%

For quick reference, copied from above:
CNC(=O)C[C@H](Cc1ccc(C#N)cc1)NC(=O)c1cc(-c2ccc(CN[C@H](C)c3ccc(C)cc3)o2)ccc1Cl
activity vs control (enzyme activity, inhibitor; 1 µM): 96%

O=C(Cc1ccc(OCc2ccccc2)cc1)NC1(C(=O)O)CCN(C(=O)c2ccc(-c3cccc(Cl)c3)cc2)CC1
activity vs control (enzyme activity, inhibitor; 10 µM): 89%
